Published values of several laboratories.
Lines come from different studies, so protocols differ. Values joined by “and” are separate records of one study, mostly repeats; a detail may differ. ± marks the error that the study gave.
Cell line: HCT-116

Compound | test | setting | how to read | endpoint | result
COCCSc1nc(N)c2c(F)c(C#N)c(F)c(Cl)c2n1 | DAPI staining imaging | 1.02 µM, 24 h |  | cells in G1 phase | 49.5%
CC(=O)OC[C@H]1O[C@@H](Sc2sc(C(=O)c3ccc(Br)cc3)c(N)c2-c2nc3ccccc3s2)[C@H](OC(C)=O)[C@@H](OC(C)=O)[C@H]1OC(C)=O | SRB | 10 µM, 48 h | relative to: untreated | growth | 98.8%
Cn1c(=O)c(C(=O)N/N=C/c2ccccc2/C=N/NC(=O)c2nc3ccccc3n(C)c2=O)nc2ccccc21 | cell growth or viability, MTT | 10 µM |  | inhibition | 63.8%
Cc1ccc(C(C)C)cc1.[Cl][Ru]([Cl])[P](CP(c1ccccc1)c1ccccc1)(c1ccccc1)c1ccccc1 | cell growth or viability, trypan blue | 48 h |  | IC90 | 2390 µM
COC(=O)N[C@H]1CC[C@@H](Nc2cc(NCc3ccccc3F)n3ncc(C(C)C)c3n2)CC1 | cell growth or viability, SRB |  |  | GI50 | 3.2 µM
COc1ccc(NC(=O)N/N=C2\CC3(CCN(C)CC3)Oc3ccccc32)cc1 | annexin V-FITC/PI | concentration not given, 24 h, Total apoptosis |  | apoptotic cells | 47.3%
Cc1ccc(C(C)C)cc1.[Cl][Au].[Cl][Ru][Cl].c1ccc(P(CP(c2ccccc2)c2ccccc2)c2ccccc2)cc1 | cell growth or viability, trypan blue | 48 h |  | IC90 | 21.5 µM
O=C(COc1ccc(/C=N/Nc2nc(-c3ccc(Cl)cc3)cs2)cc1)N1CCN(C(=O)COc2ccc(/C=N/Nc3nc(-c4ccc(Cl)cc4)cs3)cc2)CC1 | cell growth or viability, SRB | 100 µM, 48 h |  | inhibition | 53.1%
COc1cc(CNC(=O)C[C@H](C)CCC=C(C)C)ccc1O | SRB | 10 µM, 48 h |  | growth percent | 94.1%
CCN1CCN(Cc2ccc(Nc3ncc4c(n3)N(C)c3ccccc3C(=O)N4C)cc2C(F)(F)F)CC1 | cell growth or viability, ATP luminescence | 96 h |  | EC50 | 0.553 µM
O=C(COc1ccc(/C=N/Nc2nc(-c3ccc(Br)cc3)cs2)cc1)N1CCN(C(=O)COc2ccc(/C=N/Nc3nc(-c4ccc(Br)cc4)cs3)cc2)CC1 | cell growth or viability, SRB | 100 µM, 48 h |  | inhibition | 74.8%
N#Cc1c(F)c(F)c2nc(SCc3ccc4ccccc4c3)nc(N)c2c1F | DAPI staining imaging | 2.56 µM, 24 h |  | cells in G1 phase | 25.2%
Cc1nc2ccccc2c(=O)n1N | cell growth or viability, LDH | 200 µg/mL, 24 h |  | viability | 46.5%
COc1cc2c(Oc3ccc(Nc4nn(C)cc4C(=O)NC4CCCCC4)cc3F)ccnc2cc1OCCCCCCC(=O)NO | cell growth or viability, MTT | 10 nM, 72 h |  | viability | ~80%
COC(=O)Cn1c(=O)c(Cc2ccccc2)nc2ccccc21 | MTT |  | relative to: HCT-116 over normal colonocytes | selectivity index | 0.845
COc1ccc(NC(=O)CCc2nc3cc(Cl)ccc3[nH]c2=O)cc1 | MTT |  | relative to: WI-38 IC50 over HCT-116 IC50 | selectivity index | 15.3
O=C(Cn1c(=O)c(Cc2ccccc2)nc2ccccc21)NN1C(=O)c2ccccc2C1=O | MTT |  | relative to: HCT-116 over normal colonocytes | selectivity index | 7.05 and 7.04
COC(=O)CCNC(=O)CNC(=O)CCn1nc(Cc2ccccc2)c2ccccc2c1=O |  | concentration not given |  | S phase cells | 38.3%

Compound | test | setting | how to read | endpoint | result
O=C(Cn1c(=O)c(Cc2ccccc2)nc2ccccc21)OCCNCCO | qRT-PCR, item: HIF-1α | concentration not given, 72 h | relative to: untreated | mRNA level | 0.273 ± 0.002 fold
CSc1nc(Nc2ccc(/C(C)=N/NC(=O)c3ccc([N+](=O)[O-])cc3[N+](=O)[O-])cc2)c(C#N)c(-c2ccccc2)n1 | annexin V-FITC/PI flow cytometry | 1.14 µM, 24 h |  | late apoptotic cells | 15.7%
CC1CCCN(CCCNC(=O)C2=Cc3sc4c(c3CS2)CCCC4)C1 (centres unmarked) |  | 20 µM, 24 h | relative to: vehicle | esterified cholesterol | 13.1 fold
COc1ccc(C2=Nn3c(NN=C4C(=O)N(Cc5ccccc5)c5ccc(Cl)cc54)nnc3SC2)cc1 | cell growth or viability, SRB | 10 µM |  | inhibition | 46%
CC(C)OC1(CO)CCC2C(C)(CO)C(O)CCC2(C)C1C=CC1=CCOC1=O (centres unmarked) | cell growth or viability, MTT | 20 µM, 48 h |  | inhibition | 59%
COc1cc(CNC(=O)C[C@H](C)CCC=C(C)C)ccc1OCc1cn(-c2ccc([N+](=O)[O-])cc2)nn1 | SRB | 10 µM, 48 h |  | growth percent | 32.1%
[Cl][Au]1[P](c2ccccc2)(c2ccccc2)C[P](c2ccccc2)(c2ccccc2)[Au]([Cl])[P](c2ccccc2)(c2ccccc2)C[P]1(c1ccccc1)c1ccccc1 | cell growth, trypan blue exclusion | 48 h, DMSO 1% |  | IC75 | 1.9 ± 0.2 µM
CC(=C(c1ccc(O)cc1)c1ccc(Cl)cc1)c1ccc(Cl)cc1 | cell growth or viability, SRB |  |  | GI50 | 0.62 µM
CC/C=C\C/C=C\C/C=C\C/C=C\C/C=C\C/C=C\CCC(=O)Nc1ccn(C2OC(CO)C(O)C2(F)F)c(=O)n1 (centres unmarked) | cell growth or viability, SRB |  |  | GI50 | 0.0311 µM
NS(=O)(=O)c1ccc(-n2cc(Cn3c(=O)c(Cc4ccccc4)nc4ccccc43)nn2)cc1 | qRT-PCR, item: p21 | concentration not given, 72 h | relative to: untreated | mRNA level | 2.7 ± 0.188 fold
O=C(NCCc1cccc(F)c1)[C@@H]1C[C@@H](Sc2nc3ccccc3[nH]2)CN1Cc1cccc(Cl)c1 | cell invasion, inhibitor |  |  | effective concentration | 1 to 10 µM
COc1cc(CNC(=O)C[C@H](C)CCC=C(C)C)ccc1OCc1cn(-c2ccccc2)nn1 | SRB | 10 µM, 48 h |  | growth percent | 96.7%
N=C(N)NCCC[C@@H](N)C(=O)N[C@@H](CCCNC(=N)N)C(=O)N[C@@H](Cc1c(F)c(F)c(F)c(F)c1F)C(=O)N[C@@H](CCCNC(=N)N)C(=O)N[C@@H]1CSCCS(=O)(=O)CCSC[C@@H](C(=O)N[C@H](CCCNC(=N)N)C(=O)N[C@@H](CC2CCCCC2)C(=O)N[C@@H](CCCNC(=N)N)C(=O)N2Cc3ccccc3C2C(N)=O)NC(=O)[C@H](Cc2cccc3ccccc23)NC(=O)[C@H](Cc2ccc(O)cc2)NC1=O (some centres unmarked) |  |  |  | EC50 | 5.6 ± 2 µM
Cc1ncc(COP(=O)([O-])O)c(/C=N\NC(=O)Cn2c(=O)c(Cc3ccccc3)nc3ccccc32)c1O.[Na+] | MTT |  | relative to: HCT-116 over normal colonocytes | selectivity index | 1.06
COc1cc(CNC(=O)C[C@H](C)CCC=C(C)C)ccc1OCc1cn(-c2ccc(C#N)cc2)nn1 | SRB | 10 µM, 48 h |  | growth percent | 29.4%
CC12COC(c3ccccc3)OC1CCC1(C)C(C=CC3=CCOC3=O)C(CO)=CCC21 (centres unmarked) | cell growth or viability, MTT | 20 µM, 48 h |  | inhibition | 34.7%
N=C(N)NCCC[C@H](NC(=O)[C@H](CCCNC(=N)N)NC(=O)[C@H](CCCNC(=N)N)NC(=O)[C@H](CCCNC(=N)N)NC(=O)[C@H](CCCNC(=N)N)NC(=O)[C@H](CCCNC(=N)N)NC(=O)[C@H](CCCCN)NC(=O)[C@@H]1CCCN1C(=O)Cc1ccc(O)cc1)C(N)=O | item: N-terminal SPK trimethylation |  |  | cellular over enzymatic IC50 ratio | > 100 fold

Repeated from above:
Compound | test | setting | how to read | endpoint | result
N=C(N)NCCC[C@@H](N)C(=O)N[C@@H](CCCNC(=N)N)C(=O)N[C@@H](Cc1c(F)c(F)c(F)c(F)c1F)C(=O)N[C@@H](CCCNC(=N)N)C(=O)N[C@@H]1CSCCS(=O)(=O)CCSC[C@@H](C(=O)N[C@H](CCCNC(=N)N)C(=O)N[C@@H](CC2CCCCC2)C(=O)N[C@@H](CCCNC(=N)N)C(=O)N2Cc3ccccc3C2C(N)=O)NC(=O)[C@H](Cc2cccc3ccccc23)NC(=O)[C@H](Cc2ccc(O)cc2)NC1=O (some centres unmarked) |  |  |  | EC50 | 5.6 ± 2 µM
Cc1ncc(COP(=O)([O-])O)c(/C=N\NC(=O)Cn2c(=O)c(Cc3ccccc3)nc3ccccc32)c1O.[Na+] | MTT |  | relative to: HCT-116 over normal colonocytes | selectivity index | 1.06
COc1cc(CNC(=O)C[C@H](C)CCC=C(C)C)ccc1OCc1cn(-c2ccc(C#N)cc2)nn1 | SRB | 10 µM, 48 h |  | growth percent | 29.4%
